Results pooled from the literature.
Protocols differ between the studies behind these lines. ± gives the spread as reported.

SMILES | organism | assay | system | setting | EC50
CC(=O)Oc1ccc(Cn2cc(F)c(=O)[nH]c2=O)cc1C1OC(c2ccccc2)=NN1C(C)=O (stereo not drawn) | human cytomegalovirus | cytopathic effect | HEL fibroblasts, AD-169 |  | > 100000 nM
C=CCc1ccc(OCC=C(C)C)c(OC)c1 | Spodoptera frugiperda | antifeedant activity, no-choice test | larvae, Zea mays |  | 340 µg/mL
Nc1ncnc2c1c(F)cn2[C@@H]1O[C@H](CO)[C@@H](O)[C@H]1O | Trypanosoma evansi | parasite growth, resazurin | AnTat 3.3 | 48 h plus 24 h resazurin | 180 ± 20 nM
O=C(NCc1cc(F)ccc1F)c1cn(Cc2ccc(F)cc2)cc(O)c1=O | human cytomegalovirus | viral replication, GFP reporter virus | HFF | 168 h | 1400 ± 50 nM
O=C(CC12CC3CC(CC(C3)C1)C2)NCCOCC(=O)NC1CCN(S(=O)(=O)c2cc(C(=O)Nc3cc(F)c(F)c(F)c3)ccc2F)CC1 | Hepatitis B virus | viral replication, qPCR, item: HBV DNA | HepAD38 | 6 days | 460 nM
CC(=O)Oc1ccc(Cn2cc(C)c(=O)[nH]c2=O)cc1C1OC(c2ccc(Cl)cc2)=NN1C(C)=O (stereo not drawn) | human cytomegalovirus | cytopathic effect | HEL fibroblasts, AD-169 |  | > 20000 nM
CCCCCCCCCC(=O)OCC1OC(n2cc(C)c(=O)[nH]c2=O)CC1N(C)C (stereo not drawn) | Punta Toro virus | viral replication | Vero |  | > 230 nM
CC(=O)Oc1ccc(Cn2cc(F)c(=O)[nH]c2=O)cc1C1OC(c2cccc(Cl)c2)=NN1C(C)=O (stereo not drawn) | human cytomegalovirus | cytopathic effect | HEL fibroblasts, AD-169 |  | > 20000 nM
O=C(Nc1cc(F)c(F)c(F)c1)c1ccc(F)c(S(=O)(=O)N2CCC(NC(=O)c3ccc(C4CCN(C(=O)CC56CC7CC(CC(C7)C5)C6)CC4)cc3)CC2)c1 | Hepatitis B virus | viral replication, qPCR, item: HBV DNA | HepAD38 | 4 days | 5340 nM
CCCCCCC(CC=CCCCCCCCC(=O)OCCOCn1cnc2c(=O)[nH]c(N)nc21)OC(=O)CCCCC1SCC2NC(=O)NC21 (stereo not drawn) | herpes simplex virus 1 | viral replication, plaque reduction | HFF, E-377 |  | 5700 nM
CC(=O)Oc1ccc(Cn2ccc(=O)[nH]c2=O)cc1C1OC(c2cccc(Cl)c2)=NN1C(C)=O (stereo not drawn) | human cytomegalovirus | cytopathic effect | HEL fibroblasts, AD-169 |  | > 100000 nM
CC1(C)OB(c2ccc(CNC(=O)c3cn(Cc4ccc(F)cc4)cc(O)c3=O)cc2)OC1(C)C | human cytomegalovirus | viral replication, GFP reporter virus | HFF | 168 h | 2300 ± 50 nM
CC(=O)Oc1ccc(Cn2cc(C)c(=O)[nH]c2=O)cc1C1OC(c2ccccc2)=NN1C(C)=O (stereo not drawn) | human cytomegalovirus | cytopathic effect | HEL fibroblasts, Davis |  | > 100000 nM
C/C=C/c1ccc(OCc2ccccc2)c(OC)c1 | Spodoptera frugiperda | antifeedant activity, no-choice test | larvae, Zea mays |  | 4230 µg/mL
CC(=O)Oc1ccc(Cn2ccc(=O)[nH]c2=O)cc1C1OC(c2ccccc2)=NN1C(C)=O (stereo not drawn) | human cytomegalovirus | cytopathic effect | HEL fibroblasts, AD-169 |  | > 100000 nM
CN(C)CCNC(=O)c1cc(-c2ccccc2)nc2ccccc12 | Enterovirus A71 | cytopathic effect | RD, Tainan/4643/98 |  | 4200 nM
C=C1C(=O)O[C@H]2C[C@H](C)C(/C=C/C(C)=O)=CC[C@H]12 | Reovirus 1 | viral replication | Vero |  | > 20000 nM
CC(=NCc1ccccc1)c1c(C)cc(=O)n(O)c1O | Hepatitis B virus | viral replication, inhibitor, qPCR | HepDES19 | 72 h | 22400 nM

SMILES | organism | assay | system | setting | EC50
COc1ccccc1-c1n[nH]c2nc(N[C@H]3CC[C@H](NS(=O)(=O)CC(C)C)CC3)ncc12 | Leishmania donovani |  | promastigotes, LdBOB wild type start clone |  | 6.31 nM
CC(=O)CCC1C(=O)NC(C(C)C)C(=O)NC(Cc2cccc(O)c2)C(=O)N2CCCC(N2)C(=O)OC(C(C)=CC=CC(=O)N2CCCCO2)CC=CC=CC(O)C(C)C1O (stereo not drawn) | hepatitis C virus genotype 2a JFH-1 | item: HCV RNA | Huh-7 replicon | 72 h | 89 ± 6 nM
CC(=O)Oc1ccc(Cn2cc(F)c(=O)[nH]c2=O)cc1C1OC(c2ccc(Cl)cc2)=NN1C(C)=O (stereo not drawn) | human cytomegalovirus | cytopathic effect | HEL fibroblasts, Davis |  | > 20000 nM
O=C(Nc1cc(F)c(F)c(F)c1)c1ccc(F)c(S(=O)(=O)N2CCC(NC(=O)C3CN(C(=O)CC45CC6CC(CC(C6)C4)C5)C3)CC2)c1 | Hepatitis B virus | viral replication, qPCR, item: HBV DNA | HepAD38 | 4 days | 440 nM
COc1ccc([C@@]23Oc4cc(OC)cc(OC)c4[C@]2(O)[C@H](O)[C@H](C(=O)N(C)C)[C@H]3c2ccccc2)cc1 | Hepatitis C virus | viral entry, HCV pseudoparticle infection | primary human hepatocytes |  | ~5 nM
O=C(Nc1cc(F)c(F)c(F)c1)c1ccc(F)c(S(=O)(=O)N2CCC(NC(=O)C3CCN(C(=O)CC45CC6CC(CC(C6)C4)C5)CC3)CC2)c1 | Hepatitis B virus | viral replication, qPCR, item: HBV DNA | HepAD38 | 4 days | 1100 nM
CC(=O)Oc1ccc(Cn2nc(C)c(=O)[nH]c2=O)cc1C1OC(c2cccc(Cl)c2)=NN1C(C)=O (stereo not drawn) | human cytomegalovirus | cytopathic effect | HEL fibroblasts, Davis |  | > 20000 nM
O=C1/C(=N\NC(=S)NN=Cc2cccs2)c2ccccc2N1Cc1ccccc1 | Punta Toro virus | viral cytopathogenicity | Vero |  | > 20000 nM
O=C(NCc1ccc(F)cc1F)c1c(O)c2cccnc2n(O)c1=O | HIV-1 | viral infectivity | integrase R263K |  | 36 ± 8 nM
CC(=O)CCC1C(=O)NC(C(C)C)C(=O)NC(Cc2cc(O)cc(F)c2)C(=O)N2CCCC(N2)C(=O)OC(C(C)=CC=CC(=O)N2CCCCO2)CC=CC=CC(O)C(C)C1O (stereo not drawn) | hepatitis C virus genotype 1a H77 | item: HCV RNA | Huh-7 replicon | 72 h | 18 ± 2 nM
C[C@@H]1COCCN1c1nc(NCc2cccnc2C(F)(F)F)c2cccnc2n1 | Wolbachia pipientis | infected cells, high-content imaging | C6/36 cells, wAlbB |  | 14.4 ± 3.7 nM
O=C(CC12CC3CC(CC(C3)C1)C2)NC1CCN(S(=O)(=O)c2cc(C(=O)Nc3cc(F)c(F)c(F)c3)ccc2F)CC1 | Hepatitis B virus | viral replication, qPCR, item: HBV DNA | HepAD38 | 6 days | 400 nM
O=C(Cc1csc2nc(-c3ccc(Br)cc3)cn12)NN=C1CCCC1 | Reovirus-1 | viral cytopathicity, microscopy | Vero |  | > 100 µg/mL
C=CCc1ccc(OCc2ccccc2)c(OC)c1 | Spodoptera frugiperda | antifeedant activity, no-choice test | larvae, Zea mays |  | 626 µg/mL
Nc1ncnc2c1c(Br)cn2[C@@H]1O[C@H](CO)[C@@H](O)[C@H]1O | Trypanosoma evansi | parasite growth, resazurin | AnTat 3.3 | 48 h plus 24 h resazurin | 480 ± 60 nM
O=C(NCc1c(F)cccc1F)c1cn(Cc2ccc(F)cc2)cc(O)c1=O | human cytomegalovirus | viral replication, GFP reporter virus | HFF | 168 h | 600 ± 150 nM
O=C(Nc1cc(F)c(F)c(F)c1)c1ccc(F)c(S(=O)(=O)N2CCC(O)CC2)c1 | Hepatitis B virus | viral replication, qPCR, item: HBV DNA | HepAD38 | 6 days | 260 nM
Cc1cn(C2CC(N(C)C)C(CO)O2)c(=O)[nH]c1=O (stereo not drawn) | Human alphaherpesvirus 1 | cytopathic effect | HEL |  | > 370 nM

A few entries again:
SMILES | organism | assay | system | setting | EC50
CC(=O)Oc1ccc(Cn2nc(C)c(=O)[nH]c2=O)cc1C1OC(c2cccc(Cl)c2)=NN1C(C)=O (stereo not drawn) | human cytomegalovirus | cytopathic effect | HEL fibroblasts, Davis |  | > 20000 nM
O=C1/C(=N\NC(=S)NN=Cc2cccs2)c2ccccc2N1Cc1ccccc1 | Punta Toro virus | viral cytopathogenicity | Vero |  | > 20000 nM
O=C(NCc1ccc(F)cc1F)c1c(O)c2cccnc2n(O)c1=O | HIV-1 | viral infectivity | integrase R263K |  | 36 ± 8 nM
CC(=O)CCC1C(=O)NC(C(C)C)C(=O)NC(Cc2cc(O)cc(F)c2)C(=O)N2CCCC(N2)C(=O)OC(C(C)=CC=CC(=O)N2CCCCO2)CC=CC=CC(O)C(C)C1O (stereo not drawn) | hepatitis C virus genotype 1a H77 | item: HCV RNA | Huh-7 replicon | 72 h | 18 ± 2 nM
C[C@@H]1COCCN1c1nc(NCc2cccnc2C(F)(F)F)c2cccnc2n1 | Wolbachia pipientis | infected cells, high-content imaging | C6/36 cells, wAlbB |  | 14.4 ± 3.7 nM
